Measured values from different studies.
Every numbered part comes from another study and shows a few of its results, in no order. Changes are numbered by the printed parent chain.

Set 1
Target: Interferon regulatory factor 7, full length, phosphomimetic (IRF7, Homo sapiens, UniProt Q92985, residues 1-503, S471D/S472D/S475D/S476D/S477D/S483D/S484D/S487D)
Method: protein-binding microarray
Molecule type: double-stranded DNA, one strand shown
Medium: in vitro
Concentration: 2200 nM top
Setting: 60-bp whole probe
Together with: salmon DNA 0.4 mg/ml
Baseline: random background probes
Reading: higher = stronger binding
Constant ends, left off below: GCCTAGCAC … GTCTTGATTCGCTTGACGCTGCTG
Target sequence (chain): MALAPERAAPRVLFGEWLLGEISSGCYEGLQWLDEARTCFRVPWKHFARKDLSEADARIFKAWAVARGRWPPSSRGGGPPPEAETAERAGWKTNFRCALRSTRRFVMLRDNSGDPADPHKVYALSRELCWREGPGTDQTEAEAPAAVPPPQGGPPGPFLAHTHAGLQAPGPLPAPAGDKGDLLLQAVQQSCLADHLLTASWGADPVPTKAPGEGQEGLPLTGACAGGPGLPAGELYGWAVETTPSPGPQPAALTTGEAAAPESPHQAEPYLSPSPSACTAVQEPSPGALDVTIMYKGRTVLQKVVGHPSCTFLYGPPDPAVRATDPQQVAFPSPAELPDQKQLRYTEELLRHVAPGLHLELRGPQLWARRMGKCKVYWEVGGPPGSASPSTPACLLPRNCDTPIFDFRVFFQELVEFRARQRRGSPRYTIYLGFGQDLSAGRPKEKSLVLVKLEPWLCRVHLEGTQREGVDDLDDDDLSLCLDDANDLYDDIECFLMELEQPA
`TTAGGTATCGGGTTTCGGTCAGTGCTA`: “fitted relative affinity” 2.15 z-score.
For `AACGGTATCGGTCTCGGGACGTGCTAG`, “fitted relative affinity” read 0.321 z-score.
`GACGGTTCCCTGTTCCTGACGTGCTAG`: “fitted relative affinity” 2.05 z-score.
Under “fitted relative affinity”, `TGCTTCCTAATTCTCTTTTCGTGCTAG` is recorded as 2.69 z-score.
`TTAGTACTGCTTTTCCTTTAGTGCTAG`: “fitted relative affinity” 2.52 z-score.
`TTAGGTCTCGTACTGCTTTAGTGCTAG` — result for “fitted relative affinity”: 0.406 z-score.
Under “fitted relative affinity”, `TTATTTTTTTTATTTATAAAGTGCTAG` is recorded as 0.908 z-score.
`GACGGTATCGGGGATCGGGACGTGCTA`: “fitted relative affinity” -0.451 z-score.
Under “fitted relative affinity”, `TTCCAATTCTTTTTATGCTTGTGCTAG` is recorded as 1.96 z-score.
For `GACGGTTTCGGGTTTCAGGACGTGCTA`, “fitted relative affinity” read 8.55 z-score.
Under “fitted relative affinity”, `TTAGATATCAGTATCGGTTAGTGCTAG` is recorded as 0.761 z-score.
Under “fitted relative affinity”, `GACGACTTCAGTCTCGAGACGTGCTAG` is recorded as 0.0337 z-score.
`TTAGGTTTCAGTTTCGATTAGTGCTAG`: “fitted relative affinity” 10.6 z-score.
For `AGGTTCTACTCCGTTAGTTGGTGCTAG`, “fitted relative affinity” read 1.27 z-score.
Under “fitted relative affinity”, `GACGGGATCGGTATCGGGACGTGCTAG` is recorded as -0.499 z-score.
Under “fitted relative affinity”, `GACTGTTTCGGTATCGGGACGTGCTAG` is recorded as 5.9 z-score.
`TTAGGTATCGACTATCGGGTAGTGCTA`: “fitted relative affinity” 0.185 z-score.
`GACGATTGCGGGACTGGAGACGTGCTA` — result for “fitted relative affinity”: -0.21 z-score.
`GACGGAATGGGACTGGGGACGTGCTAG` — result for “fitted relative affinity”: -0.571 z-score.

Set 2
Target: Prothrombin, mature alpha-thrombin (F2, Homo sapiens, UniProt P00734)
Method: aptamer microarray, sandwich
Molecule type: DNA with 2'F-ANA
Medium: in vitro
Concentration: 200 nM
Setting: whole 15-mer aptamer, many near background
Together with: Cy3 exosite-II aptamer, 400 nM
Reading: higher = stronger binding
Strand: GGTTGGTGTGGTTGG
For `2'F-ANA at 1 2 4 5 6 7 8 10 12 14`, “mean fluorescence intensity” read 48.9 a.u.
Under “mean fluorescence intensity”, `2'F-ANA at 1 2 4 7 9 11 14` is recorded as 50.4 a.u.
`2'F-ANA at 4 7 8 12 13 15` — result for “mean fluorescence intensity”: 464 a.u.
Under “mean fluorescence intensity”, `2'F-ANA at 1 2 3 4 5 6 7 12 13 14 15` is recorded as 68.4 a.u.
For `2'F-ANA at 1 2 3 5 10 11 12 13 14 15`, “mean fluorescence intensity” read 45.9 a.u.
Under “mean fluorescence intensity”, `2'F-ANA at 4 5 6 8 10 11 14 15` is recorded as 70 a.u.
For `2'F-ANA at 1 2 4 5 7 8 9 12 14`, “mean fluorescence intensity” read 44.4 a.u.
`2'F-ANA at 2 3 4 6 8 11 15`: “mean fluorescence intensity” 491 a.u.
`2'F-ANA at 1 3 5 6 9 10 12`: “mean fluorescence intensity” 47.8 a.u.
Under “mean fluorescence intensity”, `2'F-ANA at 4 5 6 8 9 12 13 15` is recorded as 106 a.u.
Under “mean fluorescence intensity”, `2'F-ANA at 3 4 5 7 9 10 12 13 15` is recorded as 58.9 a.u.
`2'F-ANA at 1 2 4 6 8 9 11 13 15`: “mean fluorescence intensity” 73.5 a.u.
`2'F-ANA at 1 3 4 5 6 7 8 10 11 12 15` — result for “mean fluorescence intensity”: 48.3 a.u.
`2'F-ANA at 1 5 6 7 8 9 11 14 15`: “mean fluorescence intensity” 65.7 a.u.
`2'F-ANA at 1 2 3 5 6 7 8 9 10 11`: “mean fluorescence intensity” 50.5 a.u.
For `2'F-ANA at 1 2 3 6 8 11 12 15`, “mean fluorescence intensity” read 345 a.u.
`2'F-ANA at 1 2 3 7 9 10 11 12 13 14 15`: “mean fluorescence intensity” 53.3 a.u.
`2'F-ANA at 3 7 8 14` — result for “mean fluorescence intensity”: 773 a.u.
Under “mean fluorescence intensity”, `2'F-ANA at 3 8 9 12 15` is recorded as 1280 a.u.
`2'F-ANA at 2 4 5 6 8 9 10 14` — result for “mean fluorescence intensity”: 59.7 a.u.

Set 3
Target: CCNA1, cyclin fold, Cln2 fusion (human)
Method: yeast growth competition, sequencing
Medium: yeast
Setting: weak parent motif
Baseline: not given
Reading: higher = stronger binding
Starting sequence: USP37 docking peptide (human); PSAKRSLGFLPQP; partner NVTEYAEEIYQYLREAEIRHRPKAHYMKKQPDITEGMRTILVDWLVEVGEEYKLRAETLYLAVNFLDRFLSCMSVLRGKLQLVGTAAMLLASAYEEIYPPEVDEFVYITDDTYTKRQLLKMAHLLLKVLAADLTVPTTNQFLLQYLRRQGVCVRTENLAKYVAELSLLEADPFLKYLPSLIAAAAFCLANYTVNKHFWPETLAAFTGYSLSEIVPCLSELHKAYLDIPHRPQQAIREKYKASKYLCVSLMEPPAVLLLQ
`Q12A`: “normalised enrichment score” 0.412.
For `S2A`, “normalised enrichment score” read 0.0454.
`L10A`: “normalised enrichment score” 0.115.
`L7A` — result for “normalised enrichment score”: 0.00934.
For `P13A`, “normalised enrichment score” read 0.165.
Under “normalised enrichment score”, `S6A` is recorded as 0.46.

Set 4
Target: ABI1, truncated, D143A, DHFR fusion (Arabidopsis thaliana)
Method: DHFR PCA, deep sequencing
Medium: yeast
Setting: methotrexate growth selection, single substitutions
Together with: (+)-ABA 0 µM
Baseline: wild-type fitted maximum
Reading: higher = stronger binding
Starting sequence: PYL1, truncated, DHFR fusion (Arabidopsis thaliana); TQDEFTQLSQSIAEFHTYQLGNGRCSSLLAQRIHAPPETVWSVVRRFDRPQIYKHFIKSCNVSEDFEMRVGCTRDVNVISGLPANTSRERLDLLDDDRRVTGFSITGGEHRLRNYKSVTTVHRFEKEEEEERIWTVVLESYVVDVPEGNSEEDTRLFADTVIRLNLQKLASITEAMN
`V145A`: “relative binding score” -8.23%.
Under “relative binding score”, `L28F` is recorded as 0.778%.
Under “relative binding score”, `T6I` is recorded as 40.3%.
For `S27Y`, “relative binding score” read 5.11%.
`L94H` — result for “relative binding score”: 5.56%.
`D92P` — result for “relative binding score”: 2.78%.
`H34E`: “relative binding score” 36.7%.
`D159N`: “relative binding score” 3.56%.
`V161I`: “relative binding score” 57.4%.
`D92C`: “relative binding score” -8.69%.
`V136C`: “relative binding score” -3.27%.
Under “relative binding score”, `T6N` is recorded as 32.9%.
`D97F` — result for “relative binding score”: -3.15%.
`E89S`: “relative binding score” 1.19%.
Under “relative binding score”, `T154V` is recorded as 34.8%.
For `L112Q`, “relative binding score” read 1.16%.
`E64S` — result for “relative binding score”: 28.2%.
`R69H`: “relative binding score” 8.06%.
For `A158H`, “relative binding score” read 20.9%.
`E147M`: “relative binding score” 2.23%.
